Measurements gathered from unrelated publications.
A part holds a random share of what one study measured. “And” joins repeats or separate records; there may be more than shown. pEC50: −log10 of the molar value.
Sequence of UniProt Q2M2I8 (whole entry, looked up): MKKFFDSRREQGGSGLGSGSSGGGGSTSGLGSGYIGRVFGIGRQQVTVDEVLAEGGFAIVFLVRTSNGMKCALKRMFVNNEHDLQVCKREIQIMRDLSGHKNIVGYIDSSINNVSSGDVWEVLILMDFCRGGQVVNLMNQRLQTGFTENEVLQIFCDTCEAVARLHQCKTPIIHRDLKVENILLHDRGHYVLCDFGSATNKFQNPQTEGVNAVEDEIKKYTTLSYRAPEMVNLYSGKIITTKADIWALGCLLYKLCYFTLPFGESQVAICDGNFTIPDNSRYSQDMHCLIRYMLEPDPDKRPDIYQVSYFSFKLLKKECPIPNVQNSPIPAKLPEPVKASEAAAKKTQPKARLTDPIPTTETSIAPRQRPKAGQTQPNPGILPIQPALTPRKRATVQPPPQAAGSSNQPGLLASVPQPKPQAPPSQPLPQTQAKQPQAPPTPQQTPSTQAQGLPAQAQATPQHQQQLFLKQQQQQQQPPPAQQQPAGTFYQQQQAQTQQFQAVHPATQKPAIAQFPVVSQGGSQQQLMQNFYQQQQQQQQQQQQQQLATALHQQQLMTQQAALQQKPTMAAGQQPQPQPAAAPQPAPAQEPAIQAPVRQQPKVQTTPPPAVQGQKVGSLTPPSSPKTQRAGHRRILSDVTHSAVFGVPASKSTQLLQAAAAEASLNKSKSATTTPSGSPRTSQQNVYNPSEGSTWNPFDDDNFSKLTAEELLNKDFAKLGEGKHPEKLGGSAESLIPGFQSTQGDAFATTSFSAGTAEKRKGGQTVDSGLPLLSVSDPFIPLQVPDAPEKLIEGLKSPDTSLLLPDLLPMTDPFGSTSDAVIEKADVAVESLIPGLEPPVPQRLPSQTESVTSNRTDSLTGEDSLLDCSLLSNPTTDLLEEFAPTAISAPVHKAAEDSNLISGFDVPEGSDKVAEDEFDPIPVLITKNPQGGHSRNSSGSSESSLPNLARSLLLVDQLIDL

Study 1
SMILES: COc1cc(C(=O)N2CCC(N3CCN(C)CC3)CC2)ccc1Nc1ncc2c(n1)N(C)c1ccccc1C(=O)N2C
| tested on | assay | system | setting | inhibition |
| --- | --- | --- | --- | --- |
| PRKX and PRKY human | KiNativ profiling | human PBMC | 1 µM, LYS1 site, added: ADP acyl phosphate probe | -8.5% |
| – | probe labelling, KiNativ profiling, item: TSTQEYAAkIINTK peptide | human PBMC lysate | concentration not given, Lys1 site, added: ATP acyl phosphate probe | 14.8% |
| TNIK (mouse) | probe labelling, inhibitor, KiNativ ActivX ATP probe | mouse brain lysate | 0.1 µM, Lys1 site peptide | 3.7% and 5% |

Further values, each from its own experiment
ADRB1: Beta-1 adrenergic receptor (ADRB1, Homo sapiens, UniProt P08588)
Sequence of UniProt P08588 (whole entry, looked up): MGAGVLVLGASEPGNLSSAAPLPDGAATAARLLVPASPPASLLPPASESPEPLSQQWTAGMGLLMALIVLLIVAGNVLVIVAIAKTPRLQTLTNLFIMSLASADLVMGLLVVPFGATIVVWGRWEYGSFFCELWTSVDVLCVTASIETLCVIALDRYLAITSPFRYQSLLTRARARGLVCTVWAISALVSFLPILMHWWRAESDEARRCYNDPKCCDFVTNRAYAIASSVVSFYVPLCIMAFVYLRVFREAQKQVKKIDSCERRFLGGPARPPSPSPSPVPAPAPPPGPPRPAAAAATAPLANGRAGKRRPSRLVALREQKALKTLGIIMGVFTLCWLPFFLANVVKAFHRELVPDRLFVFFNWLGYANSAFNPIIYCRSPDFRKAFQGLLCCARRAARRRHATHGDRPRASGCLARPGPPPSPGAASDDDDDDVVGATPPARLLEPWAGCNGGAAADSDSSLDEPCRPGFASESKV
| Structure (SMILES) | tested on | assay | system | setting | scale | measurement | value |
| --- | --- | --- | --- | --- | --- | --- | --- |
| Cc1ccc(-c2nnc(-c3cc(-c4ccccc4)nc4ccccc34)o2)cc1 | ADRB1 | agonist | – | – | – | pEC50 | ≤ 4.00 |
| CNC(=O)Nc1ccc2c(c1)CC[C@]21OC(=O)N(CC(=O)N(Cc2ccc(F)cc2)[C@@H](C)C(F)(F)F)C1=O | AAK1 (Homo sapiens, UniProt Q2M2I8) | KINOMEscan | – | 1 µM | baseline: control | remaining binding | 100% |
| COc1ccccc1N1CCN(C(=O)Cc2cccs2)CC1 | ADRB1 | agonist | – | – | – | pEC50 | ≤ 4.00 |
| CC(C)n1cnc(-c2ccc(F)cc2)c1-c1ncc(C(=O)Nc2ccc(N3CCN(C)CC3)cc2)[nH]1 | – | phase 2a clinical trial | patients with idiopathic pulmonary fibrosis | 30 mg once daily | – | patients with drug eruption TEAE | 0% |
| c1ccc2nc(N3CCCC(COc4ccncc4)C3)ccc2c1 (centres unmarked) | ADRB1 | agonist | – | – | – | pEC50 | ≤ 4.00 |

For quick reference, copied from above (further values, each from its own experiment):
| Structure (SMILES) | tested on | assay | system | setting | scale | measurement | value |
| --- | --- | --- | --- | --- | --- | --- | --- |
| COc1ccccc1N1CCN(C(=O)Cc2cccs2)CC1 | ADRB1 | agonist | – | – | – | pEC50 | ≤ 4.00 |
